Experimental data collected from several papers.
Numbered parts are unrelated; each lists some results of a single study.

Study 1
Target: Interferon regulatory factor 5, full length, phosphomimetic (IRF5, Homo sapiens, UniProt Q13568-2, residues 1-514, K96S/S451D/S453D/S456D/S462D)
Method: protein-binding microarray
Molecule type: double-stranded DNA, one strand shown
Matrix: in vitro
Concentration: 250 nM
Setting: 60-bp whole probe
With: salmon DNA 0.4 mg/ml
Relative to: random background probes
Reading: higher = stronger binding
Shared flanks, not repeated: GCCTAGCAC … GTCTTGATTCGCTTGACGCTGCTG
Sequence	log fluorescence
GACGGTCTCAGTCTCGAGACGTGCTAG	-0.0726 z-score
AACGGACTGCTTTTCCTGACGTGCTAG	-0.128 z-score
GAAGATATCAGTTTCGAGACGTGCTAG	6.51 z-score
GACGGACTGGGGTATCGGTACGTGCTA	1.02 z-score
GACGGACTGGGATTCGGGACGTGCTAG	-0.392 z-score
TACGGACTGCTTATCCTGACGTGCTAG	-0.153 z-score
TTTCTTACATGCATCATAACGTGCTAG	3.6 z-score
TTAGATATCAGACTGAATTAGTGCTAG	0.492 z-score
CTGCCTGGCCAAGCCCAGATGTGCTAG	-0.958 z-score
GACGGACTGGACACTGGGGAGGTGCTA	-0.523 z-score
GACTGTATCGGGTATCGGGACGTGCTA	3.55 z-score
CACGGTATCGGGACTGGGGACGTGCTA	0.864 z-score
GACGGACTGGTACTGGGGACGTGCTAG	-0.384 z-score
GCCGATATCAGTATCGAGACGTGCTAG	4.06 z-score
GACCGTTTCCTACTGCTGACGTGCTAG	0.416 z-score
TTAGGTTTCGCGACTGGGTTAGTGCTA	1.43 z-score
TACGAACTGAGTCTCGAGACGTGCTAG	-0.124 z-score
TTAGGTTTCGACTATCGGTTAGTGCTA	8.79 z-score
TCCTCTTTCACTGCTCCCCACGTGCTA	3.47 z-score

Study 2
Target: RNA binding protein fox-1 homolog 2, RRM domain, GST-SBP tag (RBFOX2, Homo sapiens, UniProt O43251-10, residues 100-194)
Method: RNA Bind-n-Seq
Molecule type: RNA
Matrix: in vitro
Concentration: 365 nM
Setting: natural RNA segment, single round, ends assumed
Relative to: no-protein control
Reading: higher = stronger binding
Target sequence (chain): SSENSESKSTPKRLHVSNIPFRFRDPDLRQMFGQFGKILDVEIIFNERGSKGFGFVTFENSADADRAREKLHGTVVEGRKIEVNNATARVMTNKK
Sequence	RBNS enrichment (R)
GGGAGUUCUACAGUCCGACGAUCGCUCAAACCAUUAAGGGUUAAAAAUACAUCUUAAACAUUGGAAAGCUCUUCUAGCUGAAUCUGAAAUAUUACCCCUUGUCUAGAAAAAGGGGGGCAGUCAGAACAGCUGUUGGAAUUCUCGGGUGCCAA	0.333
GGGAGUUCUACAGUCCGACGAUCCAACAUUCUUGCCAGAGUUCUUGGGAAACCUGUUUUUUUCUCUACUCUCCAUCUCUGCUGCUCUCAUGCUUUAAAUUGAUAAAAUAUGGGCUCAAAAAAAGAAAGCCGCCUGGAAUUCUCGGGUGCCAA	0.345
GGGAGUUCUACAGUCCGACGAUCCUUAUUGAUAUUGGUCUGAUGGUUUGUGAACUCUUGCUGGGAAUCAAAAUUUCCUUGAGACUCUUUAGCAUUCAUACUUUGGGGUUAAAGGAGAUUCCUCAGACUCAUCCUGGAAUUCUCGGGUGCCAA	0.217
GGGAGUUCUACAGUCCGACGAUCUGAUAGUCCUUGCAAGUAAGUCAAGGUUUUAUCCUGAUUGGAAAUAGAAGACAUUUCCGGUUGAGAGAACAGAUUCGUUGGAAGCUUAACUUUUGUUGCCUCUUAACGCCUGGAAUUCUCGGGUGCCAA	0.291
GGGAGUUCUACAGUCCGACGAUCGCCUGUCUGUCUUCCUGUCACGUGGAUCCUUGGUUCUUUCCCGGCCAUUCCAUUCCCAGGGAGUGAGAAGUAUUGUGGGUAGAGUUGCCAAAGAUGGCUGGACCAUGGAAUGGAAUUCUCGGGUGCCAA	1.85
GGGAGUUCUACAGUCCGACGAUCCCAGGUCCUUGGGAUGGUUGACCCCUGCCUCUGCAGUAGCCUUUUGUGAGUCUGCUAAGGUAGCUCUCACACACCUCGGCUCUGGGGUUGAUACCUGAGCCUGCAAUAGAUGGAAUUCUCGGGUGCCAA	0.223
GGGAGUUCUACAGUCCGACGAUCCCUCCAGCCCACACCACCCAGACCUAGGCUUCCCUCUUCUCAGGAUCCACCACAGGGUUAGGGGACAGGAAGCCUGUUCUAUUCUCAAUAAAUCUUACAAAAUUCCAAAAUGGAAUUCUCGGGUGCCAA	0.692
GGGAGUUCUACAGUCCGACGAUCCAUUACUAUCCCUUGGGCUAACCAGCAAGAAGAUUGUACAUCACAGAACUGGAUGAGCCAAACAGCCACCAUCUUUACUCUUGACUAAAUGGACCUAUCAAGAAUAUUAAUGGAAUUCUCGGGUGCCAA	0.385

Study 3
Target: Sal-like protein 4, full length isoform A (SALL4, Homo sapiens, UniProt Q9UJQ4, residues 1-1053)
Sequence of UniProt Q9UJQ4 (whole entry, looked up): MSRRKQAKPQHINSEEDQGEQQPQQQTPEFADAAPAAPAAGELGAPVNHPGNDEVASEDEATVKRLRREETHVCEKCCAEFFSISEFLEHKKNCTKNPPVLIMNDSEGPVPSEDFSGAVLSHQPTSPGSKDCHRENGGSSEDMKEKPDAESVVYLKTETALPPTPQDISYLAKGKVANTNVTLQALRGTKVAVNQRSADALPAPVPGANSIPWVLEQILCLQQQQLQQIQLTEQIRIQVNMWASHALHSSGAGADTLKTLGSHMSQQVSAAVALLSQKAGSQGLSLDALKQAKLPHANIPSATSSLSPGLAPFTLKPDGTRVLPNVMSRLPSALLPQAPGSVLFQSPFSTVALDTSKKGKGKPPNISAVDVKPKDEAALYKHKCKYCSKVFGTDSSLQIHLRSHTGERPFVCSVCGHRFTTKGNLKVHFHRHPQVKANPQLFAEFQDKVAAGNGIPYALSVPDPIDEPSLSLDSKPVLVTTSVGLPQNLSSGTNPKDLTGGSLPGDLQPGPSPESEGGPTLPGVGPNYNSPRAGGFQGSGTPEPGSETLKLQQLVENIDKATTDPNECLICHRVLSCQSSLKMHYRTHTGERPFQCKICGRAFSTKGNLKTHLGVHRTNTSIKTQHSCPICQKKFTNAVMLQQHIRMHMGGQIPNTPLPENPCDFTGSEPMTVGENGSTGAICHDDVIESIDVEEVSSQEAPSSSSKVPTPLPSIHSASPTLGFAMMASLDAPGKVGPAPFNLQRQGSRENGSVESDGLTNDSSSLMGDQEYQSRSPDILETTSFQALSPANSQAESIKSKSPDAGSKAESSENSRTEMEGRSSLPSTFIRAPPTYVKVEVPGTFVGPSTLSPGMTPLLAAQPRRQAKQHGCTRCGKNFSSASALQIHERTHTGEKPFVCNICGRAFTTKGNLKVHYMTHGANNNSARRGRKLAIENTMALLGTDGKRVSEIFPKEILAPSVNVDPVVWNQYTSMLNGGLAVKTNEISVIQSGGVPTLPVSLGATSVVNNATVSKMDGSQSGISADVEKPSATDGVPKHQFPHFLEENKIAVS
Method: universal PBM
Molecule type: double-stranded DNA, one strand shown
Matrix: in vitro
Concentration: 600 nM
Setting: 8-mer, flanks averaged, mean of replicates
Reading: higher = stronger binding
Sequence	E-score
GACCGCCC	-0.266
AACAGTCT	0.0508
TGAGCCAA	0.00718
CTAATTGC	0.102
GGAGTGAC	-0.141
CCTGTGAG	-0.104
AATGCCGC	-0.187
CGATCGCG	-0.00722
ATCTATTA	0.323
TCCGAGAA	0.0442
ATGAAAGC	0.198
AGGATGAC	-0.0319
CAACCATA	0.216
GATTATAA	0.347
GGGAGGAC	-0.184
GATATCAC	0.142
GCGTGTAC	-0.0986
ACAGGCAG	-0.00532
GCCGCAAC	-0.0715
GCCGTGCA	-0.154
TGGGGGAA	-0.122
CTGCAATC	0.0383
AACTCTTC	-0.101
GGACAGCA	-0.0808
ACGTGGCT	-0.171

Study 4
Target: Centromere-binding protein 1, full length, N-terminal tag (CBF1, Saccharomyces cerevisiae, UniProt P17106, residues 1-351)
Sequence of UniProt P17106 (whole entry, looked up): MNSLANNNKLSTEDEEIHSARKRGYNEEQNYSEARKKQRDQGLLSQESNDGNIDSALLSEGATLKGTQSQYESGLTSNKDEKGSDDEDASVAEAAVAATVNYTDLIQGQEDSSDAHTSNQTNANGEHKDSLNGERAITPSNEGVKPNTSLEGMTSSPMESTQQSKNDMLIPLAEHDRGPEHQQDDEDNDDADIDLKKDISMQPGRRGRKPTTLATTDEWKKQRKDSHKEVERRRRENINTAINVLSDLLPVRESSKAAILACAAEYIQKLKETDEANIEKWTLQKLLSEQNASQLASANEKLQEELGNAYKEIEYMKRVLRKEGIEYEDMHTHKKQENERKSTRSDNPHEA
Method: protein-binding microarray
Molecule type: double-stranded DNA, one strand shown
Matrix: in vitro
Concentration: 0.8 µM
Setting: whole 60-bp probe, no competitor
Reading: higher = stronger binding
Sequence	fluorescence intensity [a.u.]
CTAGTCGCTGATAAAATCGTGATTCTCGATCAATTCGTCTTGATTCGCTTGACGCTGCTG	535
CTAGCGTTTGGTAGTCGCGCGTGAATATGCTAATTCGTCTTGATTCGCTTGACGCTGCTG	590
CTACACGTATATATTCACCTCACAAATAATATCTTCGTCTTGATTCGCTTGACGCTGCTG	517
CTATAATGTGCACGTGATGTGGCGTGATGGTCCTTCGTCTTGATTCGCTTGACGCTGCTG	17300
GAAATAGATAGCCCTGTCACCAGTATCGGGTGTTAGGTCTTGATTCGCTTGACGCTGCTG	512
CTATGTATTGCTGCTGATGTTTTAGGCACTTAGTTCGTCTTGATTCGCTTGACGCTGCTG	527
CTATGTGAACAACGTGAGGTAATTCCATGGAAATTCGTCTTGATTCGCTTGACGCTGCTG	683
GAATAGAGATTTTTGCACGAGGATTATTGCCGTTAGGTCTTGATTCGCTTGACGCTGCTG	662
GAAAATCAAGAATGTCACCAATTTTCTGCGATATAGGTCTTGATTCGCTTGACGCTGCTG	514
GAACCCGTTTAGAGGAAGGTGATGACTCGACTCTAGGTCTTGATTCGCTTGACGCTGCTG	492
GAACTTGCATTGGCAGGTGAGAAATGAATACTATAGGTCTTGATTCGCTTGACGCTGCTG	527
GAATCGATTCTTTATCAGCTGTTATATACCCATTAGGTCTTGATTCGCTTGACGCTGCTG	662
CCTAACTACTATAACGTGCGGATATAGCTTCGTACAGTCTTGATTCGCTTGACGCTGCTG	615
GAATTGGTAGATGGTCACACAGCACGGTGTTTTTAGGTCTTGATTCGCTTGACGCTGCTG	573
CCTAACTACTATATTCACGTGCTATAGCTTCGTACAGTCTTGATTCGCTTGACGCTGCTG	4510
CTAAACTATTAAAATGTCGTGGTATAGCCCGATTTCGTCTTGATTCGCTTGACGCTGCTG	495
CTAGATTATTGTTACCTCGTCACCTGTTATCGGTTCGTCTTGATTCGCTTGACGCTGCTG	1760
CTATGAAAAGCTGCCAACGTGACCTTACGTTCTTTCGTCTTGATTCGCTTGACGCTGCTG	2520
CTATATGTATGTATGCACATGCAATTCCTACATTTCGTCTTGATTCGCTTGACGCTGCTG	617
